{"data": "Results from different studies", "target": "Delta-type opioid receptor (OPRD1, Homo sapiens, UniProt P41143)", "note": "Compare with care: the assays were run in different laboratories. ± marks the error that the study gave.", "chain of UniProt P41143 (whole entry, looked up)": "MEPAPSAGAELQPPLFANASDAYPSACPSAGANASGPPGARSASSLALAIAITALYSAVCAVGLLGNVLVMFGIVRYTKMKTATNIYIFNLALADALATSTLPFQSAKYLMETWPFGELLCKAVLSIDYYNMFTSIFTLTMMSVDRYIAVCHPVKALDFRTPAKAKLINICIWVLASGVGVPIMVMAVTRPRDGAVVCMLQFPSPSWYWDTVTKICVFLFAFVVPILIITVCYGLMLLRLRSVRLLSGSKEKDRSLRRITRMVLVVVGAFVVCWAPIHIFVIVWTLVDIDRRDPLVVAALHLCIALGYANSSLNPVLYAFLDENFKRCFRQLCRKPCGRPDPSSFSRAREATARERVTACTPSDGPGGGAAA"}
{"SMILES": "Cl.O=C(N[C@H]1CC[C@@]2(O)[C@H]3Cc4ccc(O)c5c4[C@@]2(CCN3CC2CC2)[C@H]1O5)c1ccc(Cl)s1", "test": "radioligand binding", "test system": "CHO membranes", "how to read": "reference: Ki µ over Ki δ", "endpoint": "selectivity ratio", "value": 104}
{"SMILES": "O=c1ccc2ccccc2o1", "test": "radioligand binding, agonist", "setting": "10 µM", "endpoint": "inhibition", "value": "-10.5%"}
{"SMILES": "CN1CC[C@]23c4c5ccc(O)c4O[C@H]2[C@@H](OS(=O)(=O)O)C=C[C@H]3[C@H]1C5", "endpoint": "Emax", "value": "14.7 ± 1.9%"}
{"SMILES": "Cl.O=C(N[C@H]1CC[C@@]2(O)[C@H]3Cc4ccc(O)c5c4[C@@]2(CCN3CC2CC2)[C@H]1O5)c1ccc([N+](=O)[O-])s1", "test": "radioligand binding", "test system": "CHO membranes", "how to read": "reference: Ki µ over Ki δ", "endpoint": "selectivity ratio", "value": 19.7}
{"SMILES": "O=C(Nc1cccnn1)N1CCC(=Cc2cccc(Oc3ccc(C(F)(F)F)cn3)c2)CC1", "test": "radioligand binding, inhibitor", "setting": "50 µM, human, together with: [3H]naltrindole", "endpoint": "inhibition", "value": "31%"}
{"SMILES": "CN1CCN(c2cc(-c3ccncc3)c(-c3ccc4ccccc4c3)nn2)CC1", "test": "agonist, FLIPR", "setting": "12.5 µM", "endpoint": "activation", "value": "-4.2%"}
{"SMILES": "CC(C)C[C@H]1C(=O)N2CCC[C@H]2[C@]2(O)O[C@](NC(=O)[C@@H]3C=C4c5cccc6[nH]c(Br)c(c56)C[C@H]4[N+](C)(C)C3)(C(C)C)C(=O)N12.[I-]", "setting": "100 nM, together with: [3H]DPDPE", "endpoint": "radioligand binding inhibition", "value": "no effect"}
{"SMILES": "CC(=O)Nc1ccc(C(=O)N[C@H]2CC[C@@]3(O)[C@H]4Cc5ccc(O)c6c5[C@@]3(CCN4CC3CC3)[C@H]2O6)s1.Cl", "test": "radioligand binding", "test system": "CHO membranes", "how to read": "reference: Ki µ over Ki δ", "endpoint": "selectivity ratio", "value": 12.5}
{"SMILES": "O=C(Nc1cnccc1Cl)N1CCN(Cc2ccc3c(c2)OC(F)(F)O3)CC1", "test": "radioligand binding, inhibitor", "setting": "10 µM, human, together with: [3H]naltrindole", "endpoint": "inhibition", "value": "3%"}
{"SMILES": "C[C@H]1COCCN1c1nc(NCc2cccnc2C(F)(F)F)c2cccnc2n1", "test": "binding", "setting": "CEREP panel", "endpoint": "IC50", "value": "11.8 µM"}
{"SMILES": "Cl.NC(=O)c1ccc(C(=O)N[C@H]2CC[C@@]3(O)[C@H]4Cc5ccc(O)c6c5[C@@]3(CCN4CC3CC3)[C@H]2O6)s1", "test": "radioligand binding", "test system": "CHO membranes", "how to read": "reference: Ki µ over Ki δ", "endpoint": "selectivity ratio", "value": 88.2}
{"SMILES": "Cn1cccc1-c1cccnc1", "test": "binding", "setting": "50 µM", "endpoint": "inhibition", "value": "-1.54%"}
